{"data": "Results gathered from unrelated publications", "note": "Protocols differ between the studies behind these lines. Several values in a cell are separate wells, animals, samples, runs or records. ± gives the spread as reported."}
{"Substance": "N.N.O=C([O-])C1(C(=O)[O-])CCC1.[Pt+2]", "cell line": "A2780 (platinum-sensitive)", "setting": "24.6 µM, 72 h", "endpoint": "viability decrease", "value": "25%"}
{"Substance": "O=C1NC2(CCCCC2)c2nc3c(c(-c4ccccc4)c21)CCCC3", "cell line": "human erythrocytes", "assay": "hypotonicity-induced hemolysis", "setting": "200 µg/mL, 1 h", "endpoint": "inhibition", "value": "79.2%"}
{"Substance": "O=C1NC(=O)C(c2ccccc2)(c2ccccc2)N1", "cell line": "ES-D3 mouse embryonic stem cells", "assay": "cardiomyocyte differentiation", "endpoint": "ID50", "value": "49 µM"}
{"Substance": "CNCCCN1c2ccccc2CCc2ccccc21", "cell line": "mouse pheochromocytoma MPC cells", "setting": "1 µM, 30 min preincubation, with: 0.029 MBq/mL [18F]-DOPA 10 min", "how to read": "reference: control", "endpoint": "[18F]-DOPA uptake", "value": "67.4%"}
{"Substance": "CCCCCCCCCCCCCCCCCCOc1ccccc1CC(=O)OCC[N+]1(C)CCCCC1", "cell line": "leukaemia cells", "setting": "range over four lines", "endpoint": "GI50", "value": "< 3 µM"}
{"Substance": "COc1cc2c(cc1OC)C1CC(=O)C(CC(C)C)CN1CC2 (centres unmarked)", "cell line": "mouse pheochromocytoma MPC cells", "setting": "10 µM, 30 min preincubation, with: 0.024 MBq/mL [18F]-dopamine, 120 min retention phase", "how to read": "reference: control", "endpoint": "[18F]-dopamine retention", "value": "33.8%"}
{"Substance": "O=C1CCC(=O)C2(CCCCC2)N1", "cell line": "human erythrocytes", "assay": "hypotonicity-induced hemolysis", "setting": "100 µg/mL, 1 h", "endpoint": "inhibition", "value": "58.2%"}
{"Substance": "WIFPWIQL", "cell line": "4T1.2", "assay": "WST-1", "system": "peptide", "setting": "concentration not given, 20 h", "endpoint": "viability", "value": "no effect"}
{"Substance": "C[C@@H]1C[C@H]2[C@@H]3CCC4=CC(=O)C=C[C@]4(C)[C@@]3(F)[C@@H](O)C[C@]2(C)[C@@]1(O)C(=O)CO", "cell line": "H9c2", "assay": "MTT", "setting": "1 µM, 24 h, with: 500 µM H2O2 2 h", "how to read": "reference: healthy control", "endpoint": "viability", "value": "~83%"}
{"Substance": "CC[C@H](Nc1ncnc2[nH]cnc12)c1nc2cccc(F)c2c(=O)n1-c1ccccc1", "cell line": "primary CLL cells", "assay": "AKT phosphorylation, inhibitor", "setting": "30 min, with: anti-IgM", "how to read": "any decrease", "endpoint": "minimum effective concentration", "value": "≥ 100 nM"}
{"Substance": "Cn1cc(Nc2nccc(-c3ccc4c(c3)CN(C3COC3)CC[C@H]4NC(=O)c3cn(C(C)(C)C)nn3)n2)cn1", "cell line": "human B cells", "assay": "refers to: stimulation-induced genes", "setting": "100 nM, 64 h, with: anti-IgM", "endpoint": "inhibition of gene upregulation", "value": "98%"}
{"Substance": "COc1ccc2c(Oc3ccc4c(C(=O)Nc5ccccc5N)cccc4c3)ccnc2c1", "cell line": "BEND3", "assay": "cell growth or viability, MTS", "setting": "72 h", "endpoint": "GI50", "value": "0.0355 µM"}
{"Substance": "COC(=O)[C@H]1[C@H]2C[C@@H]3c4[nH]c5cc(OC)ccc5c4CCN3C[C@H]2C[C@@H](OC(=O)c2cc(OC)c(OC)c(OC)c2)[C@@H]1OC", "cell line": "mouse pheochromocytoma MPC cells", "setting": "10 µM, 30 min preincubation, with: 0.029 MBq/mL [18F]-DOPA 120 min", "how to read": "reference: control", "endpoint": "[18F]-DOPA retention", "value": "11.8%"}
{"Substance": "NC1=NC(=S)NC12CCCCC2", "cell line": "human erythrocytes", "assay": "hypotonicity-induced hemolysis", "setting": "100 µg/mL, 1 h", "endpoint": "inhibition", "value": "88.4%"}
{"Substance": "COc1cccc2c1C(=O)c1c(O)c3c(c(O)c1C2=O)C[C@@](O)(C(=O)CO)C[C@@H]3O[C@H]1C[C@H](N)[C@H](O)[C@H](C)O1", "cell line": "HepG2", "assay": "real-time PCR, refers to: topoisomerase II", "setting": "0.1 µM, 8 h, unit not given", "how to read": "reference: untreated", "endpoint": "mRNA level", "value": "0.47 ± 0.08"}
{"Substance": "COc1cc(Cc2nnc3sc(-c4cc([N+](=O)[O-])ccc4[N+](=O)[O-])nn23)c(S(=O)(=O)N(C)C)cc1OC", "cell line": "MRC5 normal lung fibroblasts", "assay": "MTT", "setting": "48 h", "endpoint": "TGI", "value": "27 ± 0.76 µM"}
{"Substance": "C[C@H](NC(=O)Cc1cc(F)cc(F)c1)C(=O)N[C@H](C(=O)OC(C)(C)C)c1ccccc1", "cell line": "HPB-ALL", "assay": "qPCR, refers to: NOTCH1", "setting": "30 µM, 16 h, 37 °C", "how to read": "reference: untreated", "endpoint": "mRNA level", "value": "decreased"}
{"Substance": "COc1cc(O)c2c(=O)c(O)c(-c3ccc(O)c(O)c3)oc2c1", "cell line": "BV-2", "assay": "NO release, inhibitor, Griess", "setting": "24 h, with: 10 µg/mL LPS + 10 µM MLA", "endpoint": "Hill slope", "value": "-1.6 ± 0.4"}
{"Substance": "CSVTCG", "cell line": "rabbit smooth muscle cells", "system": "peptide", "setting": "2 µg coated per well, 30 to 60 min", "how to read": "reference: thrombospondin-coated wells", "endpoint": "adherent cells", "value": "82% and 44%"}
{"Substance": "C[C@H](N)C(N)=O", "cell line": "human eosinophils", "setting": "10 to 6 M, 20 min pretreatment, 37 °C, cells washed before stimulus, with: valyl-tetrapeptide", "how to read": "reference: control", "endpoint": "eosinophil chemotaxis", "value": "86.1%"}
{"Substance": "CCn1c2ccccc2c2cc(C3CC(c4cc5cccc(OC)c5oc4=O)=NN3c3cccc(Cl)c3)ccc21 (centres unmarked)", "cell line": "NCI-H520", "assay": "propidium iodide staining", "setting": "IC50, 24 h", "endpoint": "cells in G0/G1 phase", "value": "61.2%"}
{"Substance": "O=C1/C(=C/c2ccc(O)c(O)c2)Oc2cc(O)ccc21", "cell line": "MRC-5", "assay": "H2O2-induced intracellular ROS", "setting": "concentration not given, 24 h pretreatment, with: H2O2 5 mM for 15 min", "how to read": "reference: untreated H2O2-exposed cells", "endpoint": "fold decrease in ROS", "value": 1.67}
{"Substance": "Cc1cc(-c2ccccc2)c2c(n1)C1(CCCCC1)NC2=O", "cell line": "human erythrocytes", "assay": "hypotonicity-induced hemolysis", "setting": "400 µg/mL, 1 h", "endpoint": "inhibition", "value": "79.4%"}
{"Substance": "NCC[C@H](NC(=O)[C@H](Cc1ccc(F)c(F)c1)NC(=O)Nc1ccc2c(CN3CCCC3)cn(Cc3c(Cl)cccc3Cl)c2c1)C(=O)NCc1ccccc1", "cell line": "human platelets", "assay": "platelet aggregation, antagonist", "setting": "3 µM, with: thrombin", "how to read": "reference: vehicle", "endpoint": "shift of thrombin concentration-response", "value": "2 fold"}
{"Substance": "CC(C)(N)C(=O)O", "cell line": "Ehrlich ascites cells, mouse", "assay": "substrate binding to Na+-carrier", "setting": "equilibrium model K2", "endpoint": "Kd", "value": "1230 µM"}
{"Substance": "COc1ccc(-c2ccc(-c3ccc(C(=N)N)nc3)s2)cc1", "cell line": "HepG2", "assay": "real-time PCR, refers to: topoisomerase II", "setting": "0.1 µM, 8 h, unit not given", "how to read": "reference: untreated", "endpoint": "mRNA level", "value": "1.23 ± 0.05"}
{"Substance": "N=C(N)SCCc1ccc(OCc2ccc([N+](=O)[O-])cc2)cc1", "cell line": "tsA201", "assay": "forward-mode exchanger current, inhibitor, inside-out patch clamp", "how to read": "reference: IC50 NCX1.1 over IC50 NCX1.3", "endpoint": "selectivity ratio", "value": "~16 fold"}
{"Substance": "O=C1NC2(CCCCC2)c2[nH]c(=S)nc(-c3ccccc3)c21", "cell line": "human erythrocytes", "assay": "hypotonicity-induced hemolysis", "setting": "1000 µg/mL, 1 h", "endpoint": "inhibition", "value": "94%"}
{"Substance": "O=C(CCc1cc(C(=O)NO)no1)Nc1nc(-c2ccccc2)cs1", "cell line": "L3.6pl", "assay": "cell growth or viability, MTS", "setting": "72 h", "endpoint": "GI50", "value": "0.7 µM"}
{"Substance": "SIIVFEKL", "cell line": "OT-I CD8+ T cells", "system": "peptide", "setting": "primed 5 d, OVA257 100 ng/mL restimulation, with: 20 ng/mL TGF-beta1 from day 2", "endpoint": "IFN-gamma single producers", "value": "0.07%"}
{"Substance": "C[C@@H]1CCO[C@H]2Cn3cc(C(=O)NCc4ccc(F)cc4F)c(=O)c(O)c3C(=O)N12", "cell line": "human neural progenitor cells", "setting": "concentration not given", "how to read": "reference: DMSO", "endpoint": "classification accuracy", "value": "< 100%"}
{"Substance": "peginesatide", "cell line": "UT-7/Epo", "assay": "cell proliferation, agonist", "setting": "2.5 d, matched to rHu-EPO 1.5 U/mL", "endpoint": "dose equivalent to rHu-EPO", "value": "2.1 nM"}
{"Substance": "VCTGSC", "cell line": "rabbit smooth muscle cells", "system": "peptide", "setting": "2 µg coated per well, 30 to 60 min", "how to read": "reference: thrombospondin-coated wells", "endpoint": "adherent cells", "value": "17%"}
{"Substance": "CCCCCCCCCCCCCCCCCCOc1ccccc1CC(=O)OCC[N+](C)(C)C", "cell line": "nine NSCLC cell lines", "setting": "10 µM", "endpoint": "mean growth inhibition", "value": "77.7%"}
{"Substance": "CNC(=O)c1ccc(-c2cnc3cnc(-c4ccccc4)cn23)cc1", "cell line": "U1242", "setting": "3 µM, 48 h, with: radiation 2 Gy", "how to read": "reference: radiation alone", "endpoint": "lagging chromosomes and bridges", "value": "> 2 fold and 2.4 fold"}
{"Substance": "TCVCGS", "cell line": "rabbit smooth muscle cells", "system": "peptide", "setting": "2 µg coated per well, 30 to 60 min", "how to read": "reference: thrombospondin-coated wells", "endpoint": "adherent cells", "value": "8%"}
{"Substance": "AIAEGDSHVLKEGAY / MEIFDVQGHVFGGKIFRVVDLGSHNVA (oligomer)", "cell line": "human T cells", "assay": "flow cytometry, ThT label", "system": "peptide", "setting": "15 µM, 1 h", "endpoint": "T cell association", "value": "66 to 67%"}
{"Substance": "O=C(/C=C/N1C[C@H]2C[C@@H]1CN2c1ccccn1)c1ccccc1O", "cell line": "C3H10T1/2", "assay": "adipocyte differentiation, Oil Red O staining", "endpoint": "effective concentration", "value": "1 µM"}
{"Substance": "COc1ccc2c(c1)c(CC(=O)O)c(C)n2C(=O)c1ccc(Cl)cc1", "cell line": "human erythrocytes", "assay": "hypotonicity-induced hemolysis", "setting": "400 µg/mL, 1 h", "endpoint": "inhibition", "value": "93.5%"}
{"Substance": "SIYNFEKL", "cell line": "OT-I CD8+ T cells", "assay": "refers to: IL-2, IFN-gamma, TNF-alpha", "system": "peptide", "setting": "primed 5 d, OVA257 100 ng/mL restimulation, with: no TGF-beta1", "endpoint": "double cytokine producers", "value": "21.1%"}
{"Substance": "CC(C)[C@H](CO)Nc1nc(Nc2cccc(Cl)c2)c2ncn(C(C)C)c2n1", "cell line": "HFF", "endpoint": "growth arrest dose", "value": "> 10 µM"}
{"note": "Some of these lines once more:"}
{"Substance": "N=C(N)SCCc1ccc(OCc2ccc([N+](=O)[O-])cc2)cc1", "cell line": "tsA201", "assay": "forward-mode exchanger current, inhibitor, inside-out patch clamp", "how to read": "reference: IC50 NCX1.1 over IC50 NCX1.3", "endpoint": "selectivity ratio", "value": "~16 fold"}
{"Substance": "NCC[C@H](NC(=O)[C@H](Cc1ccc(F)c(F)c1)NC(=O)Nc1ccc2c(CN3CCCC3)cn(Cc3c(Cl)cccc3Cl)c2c1)C(=O)NCc1ccccc1", "cell line": "human platelets", "assay": "platelet aggregation, antagonist", "setting": "3 µM, with: thrombin", "how to read": "reference: vehicle", "endpoint": "shift of thrombin concentration-response", "value": "2 fold"}
{"Substance": "C[C@H](N)C(N)=O", "cell line": "human eosinophils", "setting": "10 to 6 M, 20 min pretreatment, 37 °C, cells washed before stimulus, with: valyl-tetrapeptide", "how to read": "reference: control", "endpoint": "eosinophil chemotaxis", "value": "86.1%"}
{"Substance": "TCVCGS", "cell line": "rabbit smooth muscle cells", "system": "peptide", "setting": "2 µg coated per well, 30 to 60 min", "how to read": "reference: thrombospondin-coated wells", "endpoint": "adherent cells", "value": "8%"}
